Measurements of several laboratories.
Each line is one published result; not all experiments were run side by side. ± gives the spread as reported.

| SMILES | test | test system | conditions | endpoint | result |
| --- | --- | --- | --- | --- | --- |
| COc1cc2c(cc1OC)CN(CCc1ccc(NC(=O)c3cccc4c(=O)c5cccc(OC)c5[nH]c34)cc1)CC2 |  | CD-1 mouse, male, lung | intraperitoneal, 0.3 mg/kg | Tmax | 1 h |
| COc1cc2c(Oc3ccc4[nH]c(C)cc4c3F)ccnc2cc1OCC1(N)CC1 |  | paediatric recurrent refractory sarcoma | 12 mg | grade 3 Hyperuricemia | 0% |
| CO[C@H]1C[C@@H]2CC[C@@H](C)[C@@](O)(O2)C(=O)C(=O)N2CCCC[C@H]2C(=O)O[C@H]([C@H](C)C[C@@H]2CC[C@@H](OC(=O)NCCOCCOCCOCCOCCOCCOCCOCCOCCC(=O)N3CCc4cc(Cn5nc(-c6ccc7oc(N)nc7c6)c6c(N)ncnc65)ccc4C3)[C@H](OC)C2)C[C@@H](O)[C@H](C)/C=C(\C)[C@@H](O)[C@@H](OC)C(=O)[C@H](C)C[C@H](C)/C=C/C=C/C=C/1C | phase 1 dose escalation, item: vomiting | advanced solid tumour patients | intravenous, 6 mg weekly, any grade | TRAE incidence | 41.7% |
| O=C(O)[C@H]1O[C@@H](Oc2cc3oc(-c4ccccc4)cc(=O)c3c(O)c2O)[C@H](O)[C@@H](O)[C@@H]1O |  | Sprague Dawley rat, plasma | oral, 10 g lyophilized powder/kg, high dose | Vz/F | 5470 ± 1940 L/kg |
| O[C@H]1CCCN[C@@H]1CCCn1cnc2c(Cl)c(Cl)ccc21 |  | healthy CYP2D6 extensive/ultrarapid metabolizers, plasma | oral, 150 mg multiple doses | median AUCtau | 785 ng·h/mL |
| Clc1cc(Cl)c(-c2ccc(Cl)c(Cl)c2Cl)cc1Cl |  | fresh water | 20 °C | log K(PDMS-water) | 6.41 ± 0.06 |
| Cc1cccc(Cn2nc(C3CC3)c3c(NC(=O)c4cnc5cc(OCCN6CCN(C)CC6)ccn45)cccc32)n1 | CTCAE v4.03, item: AST increased | platinum-resistant ovarian cancer patients | oral, dose not given, together with: pembrolizumab IV every 3 weeks | all-cause adverse events | 36.4% |
| COc1ccc(-c2c(-c3ccc(C#N)c(F)c3)nc(N3CCC(N)CC3)n(C)c2=O)cc1F | item: Hepatic pain | human patients | oral, dose not given, dose escalation, NG | serious adverse event incidence | 0% |
| CN1CCN(c2ccc(Nc3nccc(-c4ccc5ccccc5c4)n3)cc2C(F)(F)F)CC1 |  | zebrafish embryos | 50 µM, 5 d | toxicity | 0% |
| C=CCNc1c(O)cc2c(O)c1C[C@@H](C)C[C@H](OC)[C@H](O)[C@@H](C)/C=C(\C)[C@H](OC(N)=O)[C@@H](OC)/C=C\C=C(/C)C(=O)N2 |  | unresectable or metastatic sarcoma | intravenous, 150 mg/m^2, grade 3-4 lab change | patients with ALT increase | 0% |
| CC1(C)C(/C=C(\Cl)C(F)(F)F)C1C(=O)OC(C#N)c1cccc(Oc2ccccc2)c1 (stereo not shown) | item: CYP2C8 | human, age 1 year |  | enzyme contribution to clearance | 0.09% |
| OCc1cn(Cc2cccc(Cl)c2)c2ccccc12 |  | F344 rat, male | oral, daily, two days | MTD | 100 mg/kg |
| C=CC(=O)Nc1cc(Nc2nccc(Nc3cc(Cl)c(F)cc3C(C)(C)O)n2)c(OC)cc1N1CC[C@@H](N(C)C)C1 | item: body weight | tumour-bearing mice | all doses tested | tolerability | not toxic |
| Clc1ccc(-c2cc(Cl)c(Cl)cc2Cl)cc1Cl |  | fresh water | 20 °C, S30-1 sampler, 30 µm | log K(PDMS-water) | 6.04 ± 0.05 |
| C[C@]1(CO)Cc2ncn(-c3ccc(C#N)c(Cl)c3)c2C(=O)O1 | investigator-assessed | human | 40 mg single dose | subjects with drug-related TEAEs | 0% |
| CC(C)C[C@@H]1NC(=O)CNC(=O)[C@H](CC(N)=O)NC(=O)[C@H](CCCNC(=N)N)NC(=O)[C@H](CCCCN)NC(=O)[C@@H]2CSSC[C@@H]3NC(=O)[C@H]([C@@H](C)O)NC(=O)CNC(=O)CNC(=O)[C@H](C(C)C)NC(=O)[C@@H]4CSSC[C@H](NC(=O)[C@H]([C@@H](C)O)NC(=O)[C@H](CSSC[C@H](NC(=O)[C@H](C(C)C)NC(=O)[C@@H]5CCCN5C1=O)C(=O)NCC(=O)N[C@@H](CCC(=O)O)C(=O)N[C@@H]([C@@H](C)O)C(=O)N4)NC(=O)CNC(=O)[C@@H]1CCCN1C(=O)[C@H]([C@@H](C)O)NC(=O)[C@H](CC(N)=O)NC3=O)C(=O)N[C@@H](CO)C(=O)N[C@@H](Cc1c[nH]c3ccccc13)C(=O)N1CCC[C@H]1C(=O)N[C@@H](C(C)C)C(=O)N2 | HPLC | ammonium bicarbonate 0.1 M | 180 µM, 14 days, pH 9.0, 37 °C, deamidation stability | remaining peptide | 17.3 ± 2.3% |
| CC(C)c1nc(N(C)S(C)(=O)=O)nc(-c2ccc(F)cc2)c1/C=C/[C@@H](O)C[C@@H](O)CC(=O)O |  | healthy human subjects | oral, dose not given, study CL-0537 safety set | incidence catheter site reaction | 0% |
| C[C@@H](NC(=O)N1C(=O)[C@H](Cc2ccnc(N)c2)[C@H]1C(=O)O)C1CCCCC1 |  | healthy adult Chinese volunteers | continuous intravenous infusion, 0.6 mg/kg/h, 5-day infusion, CTCAE 5.0 grading | incidence of elevated blood uric acid | 12.5% |
| Clc1cc(Cl)c(-c2c(Cl)cc(Cl)cc2Cl)c(Cl)c1 |  | fresh water | 20 °C, S30-2 sampler, 30 µm | log K(PDMS-water) | 6.6 ± 0.05 |
| CCCCCCCCCCCCCCCC(=O)N[C@@H](CCC(=O)NCCCC[C@H](NC(=O)[C@H](CC(=O)O)NC(=O)[C@H](CO)NC(=O)[C@@H](NC(=O)[C@H](Cc1ccccc1)NC(=O)[C@@H](NC(=O)CNC(=O)[C@H](CCC(N)=O)NC(=O)[C@H](CO)NC(=O)[C@@H](N)Cc1c[nH]cn1)[C@@H](C)O)[C@@H](C)O)C(=O)N[C@@H](CO)C(=O)N[C@@H](CCC(=O)O)C(=O)N[C@@H](Cc1ccc(O)cc1)C(=O)N[C@@H](CC(C)C)C(=O)N[C@@H](CC(=O)O)C(=O)N[C@@H](CO)C(=O)N[C@@H](CCC(=O)O)C(=O)N[C@@H](CCCNC(=N)N)C(=O)N[C@@H](C)C(=O)N[C@@H](CCCNC(=N)N)C(=O)N[C@@H](CC(=O)O)C(=O)N[C@@H](Cc1ccccc1)C(=O)N[C@H](C(=O)N[C@@H](C)C(=O)N[C@@H](Cc1c[nH]c2ccccc12)C(=O)N[C@@H](CC(C)C)C(=O)N[C@@H](CCC(=O)O)C(=O)N[C@@H](C)C(=O)NCC(=O)NCC(=O)O)C(C)C)C(=O)O | item: Vomiting | humans CrCl 20 to 30 mL/min | subcutaneous, 100 µg single dose | treatment-related adverse events | 50% |
| CCN(CCO)CCCC(C)Nc1ccnc2cc(Cl)ccc12 (stereo not shown) |  | newly diagnosed glioblastoma patients | oral, 400 mg/dose, grade 2, together with: radiotherapy and temozolomide | white cell decrease patients | 14% |
| CC(C)(O)c1cc(Nc2cc(Oc3cn(C4CC4)nc3C3CCOCC3)ccn2)ccn1 | Asthenia | advanced cancer patients, dose escalation | oral, dose not given, 2 weeks on/off, all causality grade ≥3 | treatment-emergent adverse events | 0% |
| Cc1ccc(F)c2cc(C(=O)N[C@@H]3CCC[C@H](N4CC[C@H](N(C)S(C)(=O)=O)C4)C3)[nH]c12 |  | CD1 mouse, plasma | oral, 30 mg/kg, 10 h | plasma concentration | 17.9 ng/mL |
| O=C(Nc1ccccc1)C1CCN(C(=O)Oc2cccnc2)CC1 |  | healthy women | oral, 60 mg, 7 days | adverse event Malaise | 7.1% |
| CN1CC[C@@H](c2c(O)cc(O)c3c(=O)cc(-c4ccc(C(F)(F)F)cc4Cl)oc23)[C@@H]1CO | item: Syncope | relapsed B-cell malignancies | oral, 150 mg, grade 3-4, intermittent dosing | patients with adverse event | 0% |
| O=C(O)CCCOc1ccc(F)cc1-c1cc(-c2ccccc2C(F)(F)F)n(-c2ccccc2)n1 |  | female Crl:CD(SD) rats, lungs | intravenous, 25 µg/kg, 1 d | organ weight | 0.98 ± 0.07 g |
| CC(=O)c1c(C)c2cnc(Nc3ccc(C4CCN(CCS(C)(=O)=O)CC4)cn3)nc2n(C2CCCC2)c1=O |  | HR+/HER2- advanced breast cancer patients | oral, 200 mg | patients with serious AE | 0% |
| CNC(=O)c1cc(Oc2ccc(NC(=O)Nc3cc(C(C)(C)C)nn3-c3ccc4ncccc4c3)c(F)c2)ccn1 | any related SAE, NCI CTC v3.0 | human patients | oral, 300 mg twice daily, dose at onset | related SAE | 25% |
